Measured values collected from several papers.
Parts stem from different laboratories: compare values within a part only. Changes are numbered by the printed parent chain.

Set 1
Target: Ras GTPase-activating protein-binding protein 1, C-terminal RGG region (G3BP1, Homo sapiens, UniProt Q13283)
Chain of UniProt Q13283 (whole entry, looked up): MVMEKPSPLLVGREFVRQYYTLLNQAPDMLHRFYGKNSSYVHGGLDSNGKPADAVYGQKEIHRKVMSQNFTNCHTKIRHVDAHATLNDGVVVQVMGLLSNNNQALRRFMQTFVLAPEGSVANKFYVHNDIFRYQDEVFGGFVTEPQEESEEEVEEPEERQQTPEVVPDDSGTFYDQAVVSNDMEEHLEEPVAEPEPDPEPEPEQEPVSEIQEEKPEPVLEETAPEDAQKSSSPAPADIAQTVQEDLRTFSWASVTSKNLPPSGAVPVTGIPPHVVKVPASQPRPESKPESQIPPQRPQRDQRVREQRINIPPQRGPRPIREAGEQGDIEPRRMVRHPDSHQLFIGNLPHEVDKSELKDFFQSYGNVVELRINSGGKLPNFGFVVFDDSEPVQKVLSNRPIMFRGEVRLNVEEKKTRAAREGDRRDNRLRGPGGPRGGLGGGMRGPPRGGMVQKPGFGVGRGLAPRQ
Method: RNA Bind-n-Seq
Molecule type: RNA
Sample: in vitro
Concentration: 1 µM
Setting: whole 134-nt RNA, ends assumed
Added: 150 mM KCl
Reference: input library
Direction: higher = stronger binding
Endpoint: log2 enrichment
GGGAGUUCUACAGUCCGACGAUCUCCUCAAGUCCUGUGCUACACAUCGUAUGUACCGAAUCGGGGAGGAGGAGGAAAGUAUUAUGUUACGCCGUUCGGAUCUGCACUUCCAGCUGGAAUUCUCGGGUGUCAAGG: -1.22
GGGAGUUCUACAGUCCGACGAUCUCCUGCCAACCUCUCUUAAUGCUCUGAGAGCCUCUGGUGUUGACAUAGAAGAGGAAACGGAGAAGAACCUGGAAAAGGUACAGACUAUCAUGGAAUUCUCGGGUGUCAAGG: -2.28
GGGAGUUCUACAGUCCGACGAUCACCAUGCAGGUGGGCAUCUUUCGGAAGUGGGGCAAGGGGGGGAUAGGGAGGGGGGUAACACUUUGGGAACAGGUGGUCCCAGGUCGUUUCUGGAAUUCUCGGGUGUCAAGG: -1.26
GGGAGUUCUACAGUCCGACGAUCUCAAGUCCUGUGCUACACAUCGUAUGUACCGAAUCGGAGGUUUUUUUGGAAAGGAAAGUAUUAUGUUACGCCGUUCGGAUCUGCACUUCCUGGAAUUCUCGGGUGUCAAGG: -1.41
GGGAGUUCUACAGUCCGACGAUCACCAUGCAGGUGGGCAUCUUUGGGAAGUGGGGCAAGGGGGGGAUAGGGAGGGGGGUAAAAAUUUGGGAACAGGUGGUCCCAGGUCGUUUCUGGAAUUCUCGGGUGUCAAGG: -1.9
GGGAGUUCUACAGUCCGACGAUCUCAAGUCCUGUGCUACACAUCGUAUGUACCGAAUCGGAAAGGGGAAAGGAAAGGGAAAGUAUUAUGUUACGCCGUUCGGAUCUGCACUUCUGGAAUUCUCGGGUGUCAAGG: -1.8
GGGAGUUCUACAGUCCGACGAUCGCAGGAAGUAAAAACAAAUGGAAAUGCUUCGGAUAGUGGCAAAAGUGGGGGUUGCUAAGGAAAGGGUGGGAUGGGAGUGGGUAAAGAGUUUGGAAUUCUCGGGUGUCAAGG: 1.82
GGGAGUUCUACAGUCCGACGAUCAAGUCCUGUGCUACACAUCGUAUGUACCGAAUCGGGAAAAAAAGGGUUUGGGUGGGAAAGUAUUAUGUUACGCCGUUCGGAUCUGCACUUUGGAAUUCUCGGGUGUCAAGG: 1.29
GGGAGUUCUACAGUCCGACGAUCAGUCCUGUGCUACACAUCGUAUGUACCGAAUCGGGUUUUUGGGAAAAAAAGGGAGGGAAAGUAUUAUGUUACGCCGUUCGGAUCUGCACUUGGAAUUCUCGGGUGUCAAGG: 0.54
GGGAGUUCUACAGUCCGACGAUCUGAUGGGACAACACCCGAAAGGAUAGCACAAAUAACAGGACCUCCAGACCGAUGUCAACAUGCUGCAGAAAUUAUUACAGACCUUCUUCGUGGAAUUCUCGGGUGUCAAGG: -0.372
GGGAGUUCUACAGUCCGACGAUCUCAAGUCCUGUGCUACACAUCGUAUGUACCGAAUCGGAAGGGGAAGGGAAGGGGAAAGUAUUAUGUUACGCCGUUCGGAUCUGCACUUCCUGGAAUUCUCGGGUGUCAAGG: 1.58
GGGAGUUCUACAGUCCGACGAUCCAAGUCCUGUGCUACACAUCGUAUGUACCGAAUCGGGUGGGUUUUUUUGGGAGGGAAAGUAUUAUGUUACGCCGUUCGGAUCUGCACUUCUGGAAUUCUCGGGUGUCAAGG: 0.616
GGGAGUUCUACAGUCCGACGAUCUCCUCAAGUCCUGUGCUACACAUCGUAUGUACCGAAUCGGAAAGGUGGUGGAAAGUAUUAUGUUACGCCGUUCGGAUCUGCACUUCCAGCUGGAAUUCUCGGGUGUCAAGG: -1.01
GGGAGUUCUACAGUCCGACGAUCUCAAGUCCUGUGCUACACAUCGUAUGUACCGAAUCGGGAAAGGGAAAGGGAGGGAAAGUAUUAUGUUACGCCGUUCGGAUCUGCACUUCCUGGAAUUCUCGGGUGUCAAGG: 1.96

Set 2
Target: Histone acetyltransferase KAT6A, winged helix 1, GST fusion (KAT6A, Homo sapiens, UniProt Q92794, residues 1-85)
Method: protein binding microarray
Molecule type: double-stranded DNA, one strand shown
Sample: in vitro
Concentration: not given
Setting: 8-mer, flanks averaged, mean of 2 arrays, mostly near background
Reference: not given
Direction: higher = stronger binding
Endpoint: E-score
Construct (chain): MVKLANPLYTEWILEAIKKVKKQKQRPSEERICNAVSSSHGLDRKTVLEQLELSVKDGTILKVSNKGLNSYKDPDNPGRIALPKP
AGAACAAC: -0.108
GTATAATA: 0.0421
TGCGGTAA: 0.256
GGCTTTAC: 0.162
AAGCGGGT: 0.292
CCATAACG: 0.0761
TCTATTCA: -0.135
GTAGTACA: -0.0447
AGATGGAA: -0.205
AACCATAC: -0.0772
GATTTTAA: 0.00549
CACATAGC: 0.0897
CGATAAGA: -0.0839
CGAACTCA: -0.101
CCCAGTCG: -0.0161
ATACACCA: -0.152
CGTGCCGA: 0.31
CTCCTTTA: -0.0159
AGAAAGCG: 0.227
CGCAGAAC: 0.261
CTTCGAGA: -0.18
CCCGTCTC: 0.303
AGGGATAC: -0.0997

Set 3
Target: Sal-like protein 4, full length isoform B (SALL4, Homo sapiens, UniProt Q9UJQ4-2, residues 1-616)
Method: universal PBM
Molecule type: double-stranded DNA, one strand shown
Sample: in vitro
Concentration: not given
Setting: 8-mer, flanks averaged, mean of replicates
Direction: higher = stronger binding
Endpoint: E-score
GCGACTGA: -0.235
ACACCTAT: 0.0558
AGTCGACA: 0.124
AAATGCAC: 0.0871
ACTTAGCA: -0.0493
CTTTCAGC: -0.0795
GCAATTTA: 0.184
GGCAGAGA: -0.146
CGTCTCCC: -0.157
AGTCAAGC: -0.195
CGGTTGAG: -0.109
CGAAGCTC: -0.356
ACGCACAG: -0.107
AGAATTTG: 0.115
CCAACAGC: -0.194
ACCCGACA: -0.224
ACCTTAGT: -0.0186
CGCTCACA: -0.171
TGGATACA: 0.119
CCTTTTAC: 0.138
GACTACTA: 0.139
ACCTCTAA: -0.0513
ATATTGGC: 0.234
CACTCGTC: -0.134
CCATGGAG: -0.15

Set 4
Target: CCNB1, cyclin fold, Cln2 fusion (human)
Method: yeast growth competition, sequencing
Sample: yeast
Setting: strong parent motif
Reference: not given
Direction: higher = stronger binding
Endpoint: normalised enrichment score
Parent: PKMYT1 docking peptide (human); SFEPRNLLSLFED; partner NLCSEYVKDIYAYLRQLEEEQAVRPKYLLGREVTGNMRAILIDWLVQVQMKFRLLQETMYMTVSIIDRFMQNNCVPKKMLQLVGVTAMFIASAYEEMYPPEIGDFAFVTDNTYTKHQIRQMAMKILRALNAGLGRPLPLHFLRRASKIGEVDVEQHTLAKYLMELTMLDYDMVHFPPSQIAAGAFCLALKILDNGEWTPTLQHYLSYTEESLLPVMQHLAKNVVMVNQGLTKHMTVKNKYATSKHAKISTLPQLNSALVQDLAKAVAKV
E3R: 1.21
L7S: -0.177
D13N: 1.66
L8H: 0.4
N6V: 0.114
R5F: 0.244
L8R: 0.46
L8V: -0.0315
E12D: 1.16
L8W: 0.357
E12Q: 0.414
F11N: -0.482
F11L: 1.45
E12Y: 0.521
P4I: 0.39
E12I: 0.352
D13S: 1.01
F2K: -0.0422

Set 5
Target: RNA binding protein fox-1 homolog 2, RRM domain, GST-SBP tag (RBFOX2, Homo sapiens, UniProt O43251-10, residues 100-194)
Method: RNA Bind-n-Seq
Molecule type: RNA
Sample: in vitro
Concentration: 365 nM
Setting: natural RNA segment, single round, ends assumed
Reference: no-protein control
Direction: higher = stronger binding
Endpoint: RBNS enrichment (R)
Residues (chain): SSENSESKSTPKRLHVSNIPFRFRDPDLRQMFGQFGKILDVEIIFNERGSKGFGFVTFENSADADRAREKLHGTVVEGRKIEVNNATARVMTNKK
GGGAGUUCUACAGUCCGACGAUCUUUGUUCACUUUUUAAACUAAAAUAGGAACAUCCGACACACACCGUUUGCAUCGUCUUCUCCCUUGAUAUUUUAAGCAUUUUCCCAUGUCAUGAGUUUCUCAGAAACAUGUGGAAUUCUCGGGUGCCAA: 0.63
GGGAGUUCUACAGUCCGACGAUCCCGCCAGUCCAUCCUAGACACUCCCAGAGGCUGCUAGCUCCGCCCCUCUGGCAUGGCUUUCCUUUCCCAUCGCCUUCGGAGGCCAUUUUGUCUUGAAGUCAAUGCAUGCUUGGAAUUCUCGGGUGCCAA: 4.1
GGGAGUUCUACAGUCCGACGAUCAAUGUGAUAUUUGUUGACAUUUUCCUGGCUAAUAUUUAAAAUUCAUUGGAAAAGAUUUUCAAAAUUAAUAUAAAGUGCAGAAGUUAAAAAUCUAAUAUUUAGUUGUUUAGUGGAAUUCUCGGGUGCCAA: 0.646
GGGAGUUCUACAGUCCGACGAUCUCUCUGGAGCACAACUACAGCAAACCUCCUCAGUGCCUACGGGACUUGCCAGCAGUGGAGCAUGCACAAGUGUCCCAUUACCAGCCCACAUAGAAAUAUCAAACAGUGAAUGGAAUUCUCGGGUGCCAA: 2.7
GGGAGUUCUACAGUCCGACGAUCCCGUAAUGCUGCAUUACAUGUAGGACUGUGUUUACUAAAGUGUGUAAAUGUUUAUAUAAAUACCAAAUUGCAGCAUCCCCAAAAUGAAUAAAGCCUUUUUACUUGUGGGUUGGAAUUCUCGGGUGCCAA: 1.06
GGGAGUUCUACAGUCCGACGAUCGCAGCCACUGCUCCACCUCCCCCAAAUCGUCAUGGAAAGGGUGGAGAAUGGAGGGGAACCAGGCGUCCUUGGAGGCAGCUUGGGAGGGUGACUGUGUAGUGUCACCCACAUGGAAUUCUCGGGUGCCAA: 0.468
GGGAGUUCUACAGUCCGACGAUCAGGAGACUGAGGCAAGAGCCUCGUAGCAUUAGCUGCAUAGCAAGUUUGAAACCAGUCUGCACUACAUGAGGCUUUGUCUCAAAAUGAAAAAGUUUGAGAUUAUCCUAGGCUGGAAUUCUCGGGUGCCAA: 0.959
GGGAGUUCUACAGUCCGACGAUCAAGCCAUUUCAGAGUUUGGCUGCUGCUCUGACCCUGCUGUGGUACAAAAAACAUGGAUUUUUUUUUUUUUAACUGGAGUAAUACCAAAUUCCCUUUAGAAGCUUGAAGUUUGGAAUUCUCGGGUGCCAA: 0.686
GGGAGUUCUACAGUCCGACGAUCGUAAGUUUUGAGAAAUACGAGUCUGUCAGAGCGGCCAUAAGCCAUAAAGAGUCAAUCUCUUAAUUAUAUUUUUCAUCAUGUAAACAAGUUUCCCAUUUCCCUUUCUUAGAUGGAAUUCUCGGGUGCCAA: 1.32
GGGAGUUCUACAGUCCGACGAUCACCCGCUGCGUGUGUGUGCGCGCGCGUGUACGUGUGGCCCCACAUCCGCCGCCUUCCACGCUAGGAUGUAAGAGGUCGCCUCCUAUUGUACAUUUGGGGAAAGCCUUGGGUGGAAUUCUCGGGUGCCAA: 0.318
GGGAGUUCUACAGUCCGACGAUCAAGAGGUUUCAAGGAACUGUUUCGCUUGAUCUGCACCCUGCUGCUGUGUUCUGUGCUUUACACUGACAGAACCUGGGUUUUCAGUUGGCAAUCAUGGAAAGCAUGUUGUGUGGAAUUCUCGGGUGCCAA: 0.957
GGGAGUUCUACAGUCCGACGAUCGGAAGUCCACUUCAGUAAGUGCAAGGCGCUAGCACCCAUCGAGGUAGAGGACAUUGCUUUAAGCCCCAGUUUGUUUGUAGGGUUGAGUAUGAAAAAGCCCAUCUCCUGUGUGGAAUUCUCGGGUGCCAA: 5.93

Repeated from above (set 1):
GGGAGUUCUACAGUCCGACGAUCAAGUCCUGUGCUACACAUCGUAUGUACCGAAUCGGGAAAAAAAGGGUUUGGGUGGGAAAGUAUUAUGUUACGCCGUUCGGAUCUGCACUUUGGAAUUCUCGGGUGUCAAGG: 1.29
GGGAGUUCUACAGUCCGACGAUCAGUCCUGUGCUACACAUCGUAUGUACCGAAUCGGGUUUUUGGGAAAAAAAGGGAGGGAAAGUAUUAUGUUACGCCGUUCGGAUCUGCACUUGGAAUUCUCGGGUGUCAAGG: 0.54
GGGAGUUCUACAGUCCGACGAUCUGAUGGGACAACACCCGAAAGGAUAGCACAAAUAACAGGACCUCCAGACCGAUGUCAACAUGCUGCAGAAAUUAUUACAGACCUUCUUCGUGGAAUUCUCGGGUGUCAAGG: -0.372
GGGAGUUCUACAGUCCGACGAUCUCAAGUCCUGUGCUACACAUCGUAUGUACCGAAUCGGAAGGGGAAGGGAAGGGGAAAGUAUUAUGUUACGCCGUUCGGAUCUGCACUUCCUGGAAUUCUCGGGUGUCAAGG: 1.58
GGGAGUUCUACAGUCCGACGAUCCAAGUCCUGUGCUACACAUCGUAUGUACCGAAUCGGGUGGGUUUUUUUGGGAGGGAAAGUAUUAUGUUACGCCGUUCGGAUCUGCACUUCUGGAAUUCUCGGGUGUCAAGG: 0.616
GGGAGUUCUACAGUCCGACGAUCUCCUCAAGUCCUGUGCUACACAUCGUAUGUACCGAAUCGGAAAGGUGGUGGAAAGUAUUAUGUUACGCCGUUCGGAUCUGCACUUCCAGCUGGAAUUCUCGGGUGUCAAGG: -1.01
